Published values collected from several papers.
Every numbered part comes from another study and shows a few of its results, in no order. Substitutions count along the parent as printed.

Block 1
Target: Sal-like protein 4, full length isoform A (SALL4, Homo sapiens, UniProt Q9UJQ4, residues 1-1053)
UniProt Q9UJQ4, sequence (whole entry, looked up): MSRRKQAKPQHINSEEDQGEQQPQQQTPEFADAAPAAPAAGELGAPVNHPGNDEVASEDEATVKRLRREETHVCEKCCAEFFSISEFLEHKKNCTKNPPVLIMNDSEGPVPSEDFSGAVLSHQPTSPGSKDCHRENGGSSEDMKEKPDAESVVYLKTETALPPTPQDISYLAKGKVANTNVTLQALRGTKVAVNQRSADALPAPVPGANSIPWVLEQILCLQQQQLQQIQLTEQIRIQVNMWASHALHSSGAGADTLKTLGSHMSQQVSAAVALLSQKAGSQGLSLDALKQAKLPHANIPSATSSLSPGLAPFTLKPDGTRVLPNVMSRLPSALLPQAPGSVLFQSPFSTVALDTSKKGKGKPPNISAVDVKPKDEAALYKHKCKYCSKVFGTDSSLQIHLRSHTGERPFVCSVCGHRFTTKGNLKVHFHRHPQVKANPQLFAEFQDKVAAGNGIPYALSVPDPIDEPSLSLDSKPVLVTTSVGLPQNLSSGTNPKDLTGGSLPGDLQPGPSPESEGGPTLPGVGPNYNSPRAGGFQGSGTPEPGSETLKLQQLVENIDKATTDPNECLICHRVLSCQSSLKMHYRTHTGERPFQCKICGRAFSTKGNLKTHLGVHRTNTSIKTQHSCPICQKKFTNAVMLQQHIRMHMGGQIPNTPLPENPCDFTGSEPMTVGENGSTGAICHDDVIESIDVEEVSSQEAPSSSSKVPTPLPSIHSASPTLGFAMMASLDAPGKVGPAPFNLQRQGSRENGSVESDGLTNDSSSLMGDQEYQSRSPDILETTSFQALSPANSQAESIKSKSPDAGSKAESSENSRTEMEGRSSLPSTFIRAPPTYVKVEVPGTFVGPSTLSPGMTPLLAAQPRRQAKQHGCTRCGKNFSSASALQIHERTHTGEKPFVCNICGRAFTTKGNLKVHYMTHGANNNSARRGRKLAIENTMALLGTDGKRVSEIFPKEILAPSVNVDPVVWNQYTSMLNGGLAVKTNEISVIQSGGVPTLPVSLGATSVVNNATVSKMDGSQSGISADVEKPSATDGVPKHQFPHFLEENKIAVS
Technique: universal PBM
Molecule type: double-stranded DNA, one strand shown
Medium: in vitro
Concentration: 600 nM
Notes: 8-mer, flanks averaged, mean of replicates
Direction: higher = stronger binding
Measurement: E-score
AGCACGCT: -0.262
CAAGGAAA: 0.0113
ACCATGCG: -0.139
GTGAGAAA: 0.121
AGACAGAG: 0.0581
GGCCGGGA: -0.286
GAATCGAC: -0.0522
ACCATGAG: -0.0415
AGAATTAC: 0.194
AAACAAAG: 0.117
ACCCATTC: -0.0449
CCGCTGAG: -0.278
AAATCGTG: 0.212
CAGCCTAA: -0.0847
GCCCCAAA: -0.171
CGTCCCGC: -0.272
CAGGCTCC: -0.255
TGACGACA: -0.038

Block 2
Target: Interferon regulatory factor 7, full length, phosphomimetic (IRF7, Homo sapiens, UniProt Q92985, residues 1-503, S471D/S472D/S475D/S476D/S477D/S483D/S484D/S487D)
Technique: protein-binding microarray
Molecule type: double-stranded DNA, one strand shown
Medium: in vitro
Concentration: 2200 nM top
Notes: 60-bp whole probe
With: salmon DNA 0.4 mg/ml
Baseline: random background probes
Direction: higher = stronger binding
Measurement: fitted relative affinity
Shared flanks, not repeated: GCCTAGCAC … GTCTTGATTCGCTTGACGCTGCTG
Residues (chain): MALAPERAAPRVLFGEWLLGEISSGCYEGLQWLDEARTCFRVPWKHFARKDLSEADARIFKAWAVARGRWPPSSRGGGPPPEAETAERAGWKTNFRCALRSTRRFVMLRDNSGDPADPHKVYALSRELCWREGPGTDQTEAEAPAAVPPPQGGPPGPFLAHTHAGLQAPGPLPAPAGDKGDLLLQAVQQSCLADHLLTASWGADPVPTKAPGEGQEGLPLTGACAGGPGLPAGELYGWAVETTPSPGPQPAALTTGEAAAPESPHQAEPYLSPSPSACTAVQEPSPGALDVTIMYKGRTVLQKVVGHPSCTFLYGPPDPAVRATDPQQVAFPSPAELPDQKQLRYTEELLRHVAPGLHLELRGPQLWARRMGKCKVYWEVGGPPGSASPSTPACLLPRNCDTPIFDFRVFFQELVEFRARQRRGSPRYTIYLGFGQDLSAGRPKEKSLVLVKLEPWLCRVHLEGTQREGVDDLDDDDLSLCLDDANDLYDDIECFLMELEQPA
GAGCCTCTGTTTTGAGCACAGTGCTAG: 0.832 z-score
GACGATTTCACTATCGAGACGTGCTAG: 1.67 z-score
TCACCTTTTAAGTTCTCACTGTGCTAG: 1.48 z-score
TTAGAGCTGGGGTATCGATTAGTGCTA: -0.298 z-score
GACGGTCTCCTTATCTTGACGTGCTAG: 0.919 z-score
GACGATTCCCTTTTCCTGACGTGCTAG: 2.16 z-score
GAAGGTCTCGGTTTCGGGACGTGCTAG: 3.93 z-score
AGTGAATTAGGTTTCACTTTGTGCTAG: 4.61 z-score
TCAGATCTGCCGTCCCACTCAGTGCTA: 1.09 z-score
TTAGCTTTCGGGTATCGATTAGTGCTA: 6.02 z-score
GACGGTTCCGGTTTCGGGGCGTGCTAG: 4.92 z-score

Block 3
Target: RNA binding protein fox-1 homolog 2, RRM domain, GST-SBP tag (RBFOX2, Homo sapiens, UniProt O43251-10, residues 100-194)
Technique: RNA Bind-n-Seq
Molecule type: RNA
Medium: in vitro
Concentration: 365 nM
Notes: natural RNA segment, single round, ends assumed
Baseline: no-protein control
Direction: higher = stronger binding
Measurement: RBNS enrichment (R)
Residues (chain): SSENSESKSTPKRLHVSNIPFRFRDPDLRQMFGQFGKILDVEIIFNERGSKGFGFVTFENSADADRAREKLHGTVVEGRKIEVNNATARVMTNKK
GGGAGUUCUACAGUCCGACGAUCACCGUCCGCUUUUCCUGAGUUCUCCCUCCCAAUUGGCUCCAGCUUCCUGGGGGCGUGGCCAAGCCCUCCUCUUCCCAGAAUUGGCCCGGGGCCUUCAAUUUACGUUCUUUUGGAAUUCUCGGGUGCCAA: 0.394
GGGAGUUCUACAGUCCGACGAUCUCCAGUUCUGUUUUUGCAUCGUGACAAAGAGAGCACAGCCAAUUCUCAUGCUGGCUUCUUCAGAUACUUUGAAAAACCCGGACAGCCACACCAGAGAGGCCUUAUAGCGGUGGAAUUCUCGGGUGCCAA: 0.322
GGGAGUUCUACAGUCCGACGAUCUGCUUUGACCUGCAGAGACUUGUAGACCUCUUCUCUUCUCUGUCCCCUUGGUUACCACCUACCCACCUUGCCUAUUUUAAGUGAAACUUACCACCAAUGAUGUGGGGAAGUGGAAUUCUCGGGUGCCAA: 0.563
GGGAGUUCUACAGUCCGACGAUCACCAUCACAUACCAGUAACUCGGUGGGCAGGGAGUCUGUUCCCCCGUCCUUGCAUUCCGCUGGCUGACCUGUUAGACCUGUCCUUGUGAAUGCCACCGUUUCCUCUAAGAUGGAAUUCUCGGGUGCCAA: 0.515
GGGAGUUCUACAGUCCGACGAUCCCAGACAACCACAAUGCCAGGUACGGGGUCUCUGAGCAGCAGCCAGUGCAGAUCCCCAUUUGCAGUAAGAUUGUACCUCAGCGGUACAAUUCCUCACCAAGGAAGUGGCUUGGAAUUCUCGGGUGCCAA: 0.389
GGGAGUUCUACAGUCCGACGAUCGCUUUUGUGAUGCAGCUACCAUGAUUCCAAAUAAGUAAAAAUCAGCCACUUCUCCCUGUCCACUAGAGGUCGCUGUCUUCACAGCUUCUCUCACCCUAGCCAAAGGUCCUUGGAAUUCUCGGGUGCCAA: 0.351
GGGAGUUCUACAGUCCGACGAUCGGUUCCUAUUCAGUAUUUCCUGGGGAUUGUUUGCUUUUUAAGUAAAACACUUCUGACCCAUAGCUCAGUAUGUCUGAAUUCCAGAGGUCACAUCAGCAUCUUUCUGCUUUUGGAAUUCUCGGGUGCCAA: 4.77
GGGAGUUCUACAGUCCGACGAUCCCCUUCUCCCACUUGCCUACCCUCAAUGCCACACUGUUUUUGAAGUGGCCCAUAACUUGAAGGAAAAGUUUAAAGACAGUUCAAUUUAAUCAUCAGAAUGCAUUCUUUUUUGGAAUUCUCGGGUGCCAA: 5.06
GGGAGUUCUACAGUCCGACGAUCUGUCGACCUGGAUGAGGUCGCCUAUUUCACCUGGGCUUCCUGACCCAGCUCAGAACCUAGGAAUCCCACAGCCCUAACCCCAGCCUUCAUACAGACUUUUAAUCCUCUACUGGAAUUCUCGGGUGCCAA: 0.346
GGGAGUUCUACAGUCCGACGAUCUGUGGCUUUCUUAAAGCCCUGUUGUAAAAAAUUACUAUGUGGAUGGCAGUCUCUCACAUCACAGAUGUGGAAAGUAUAAUUUUAUAUUUGUAUUUUCAAAUAAAUAAGUUUGGAAUUCUCGGGUGCCAA: 0.496
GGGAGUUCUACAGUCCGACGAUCUACACUGUUCAUUUUUAAAAUUCCUUCACACUGUAAUUUAAUGUGUUUUAUAUUCUUUUGUAGUAAAACAACAUAACUCAGAUUUCUACAGGAGACAGUGGUUUUAUUCGUGGAAUUCUCGGGUGCCAA: 0.419
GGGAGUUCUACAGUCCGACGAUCUUGCUUUAACCUUUGGUUACUUUUAUUCUGUUAAACAGAAUUGAAGAAAGAGUAUUAUACCAGAGUGUAGUAGGCUAGGGUGAUUGUAAGAACUCUGUAAUAGAAUGUCAUGGAAUUCUCGGGUGCCAA: 1.41

Block 4
Target: CCNB3, cyclin fold, Cln2 fusion (human)
Technique: yeast growth competition, sequencing
Medium: yeast
Notes: weak parent motif
Baseline: not given
Direction: higher = stronger binding
Measurement: normalised enrichment score
Starting sequence: SAMHD1 docking peptide (human); ASKSRVQLFKDDP; partner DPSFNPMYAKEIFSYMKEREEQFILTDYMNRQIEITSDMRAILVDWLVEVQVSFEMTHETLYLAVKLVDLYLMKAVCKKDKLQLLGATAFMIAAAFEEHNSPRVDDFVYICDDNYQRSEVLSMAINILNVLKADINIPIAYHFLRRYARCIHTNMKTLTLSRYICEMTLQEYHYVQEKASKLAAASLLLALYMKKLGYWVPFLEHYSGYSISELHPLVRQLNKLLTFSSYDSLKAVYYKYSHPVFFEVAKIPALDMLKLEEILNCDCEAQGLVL
K3T: -0.371
L8N: -0.0158
D11N: 0.115
D11I: 0.148
F9H: 0.0177
R5A: 0.0299
F9D: 0.1
K3Y: -0.341
V6H: -0.293
Q7N: -0.0755
K10M: -0.115
Q7F: 0.209
D11T: 0.492
K10A: -0.122
R5M: -0.162
S4E: 0.0366
L8K: -0.167

Block 5
Target: Histone acetyltransferase KAT6A, winged helix 2, GST fusion (KAT6A, Homo sapiens, UniProt Q92794, residues 85-181)
Technique: protein binding microarray
Molecule type: double-stranded DNA, one strand shown
Medium: in vitro
Concentration: not given
Notes: 8-mer, flanks averaged, mean of 2 arrays, mostly near background
Baseline: not given
Direction: higher = stronger binding
Measurement: E-score
Construct (chain): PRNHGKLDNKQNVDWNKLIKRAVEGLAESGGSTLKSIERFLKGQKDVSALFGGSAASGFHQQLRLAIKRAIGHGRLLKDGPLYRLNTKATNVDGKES
TGTAAGAA: 0.0496
CCCGTAAC: -0.118
ACACTTAC: -0.111
AACCGAAA: 0.189
CTTGTCCA: -0.0166
AGAAATAG: 0.00843
ACACTAGC: 0.0292
CAAACCAC: -0.0216
ATTTATGC: -0.0265
CAGTTCCG: -0.00208
ACCGTGAG: -0.163
CGAGAACA: 0.104
CACGGAGG: 0.0975
CTGCTCTC: 0.0609
ATACTGAT: 0.051
CGAGCGGA: 0.168
GTGTCGTA: -0.0172
GGTCGTAA: 0.035
TAACGAGA: -0.0713
CACGATCG: -0.167
AGCTAACT: -0.107
TATTGGAA: -0.243

Block 6
Target: RING finger protein unkempt homolog, zinc fingers 1-6, GST-SBP tag (UNK, Homo sapiens, UniProt Q9C0B0, residues 30-357)
Technique: RNA Bind-n-Seq
Molecule type: RNA
Medium: in vitro
Concentration: not given
Notes: RNA with constant flanks, ends assumed
Baseline: input RNA pool
Direction: higher = stronger binding
Measurement: bound/input enrichment
Residues (chain): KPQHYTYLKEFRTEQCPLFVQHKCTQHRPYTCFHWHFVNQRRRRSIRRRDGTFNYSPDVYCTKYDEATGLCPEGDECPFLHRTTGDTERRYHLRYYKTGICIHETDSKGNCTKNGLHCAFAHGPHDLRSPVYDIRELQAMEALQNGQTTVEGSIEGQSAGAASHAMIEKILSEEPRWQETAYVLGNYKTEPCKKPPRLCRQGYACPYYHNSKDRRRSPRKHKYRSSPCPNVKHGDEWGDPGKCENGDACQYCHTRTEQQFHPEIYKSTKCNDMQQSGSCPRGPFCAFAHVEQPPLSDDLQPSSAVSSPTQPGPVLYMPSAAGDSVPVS
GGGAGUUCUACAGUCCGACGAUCGAUAUGGGCUAUAAUACUUUAGCCAACUUCCGAAUAGAAAAGAAAAUUGGUCGUGGACAAUUCCGUGAAGUUUAUAGAGCAUCCUGUCUCUUGGAUGGAGUGCCGGUAGCGUUAAAAAAACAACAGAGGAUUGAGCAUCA: 1.06 ratio
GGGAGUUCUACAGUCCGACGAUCGCGGAGCUUCUGAAAAAUGCAGAUGAGCUAGUCAAACAGAAAAUUCAUCCAACAUCAGUUAUCCGUGGCUAUCGUCUUGCCUGCAAGGAAGCGGUGCGUUAUAUCAAUGAGAACCUGAUUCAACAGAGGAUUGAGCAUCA: 0.0736 ratio
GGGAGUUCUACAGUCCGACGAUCCAGCAGUCAUCUCUCGGUAGGGAUUCACAGGGUCAUGGGCGUGACCUGUCUGCAGCAGGAACCGGCCUUCUUGCUGCUGCUACCCAGUCUUUAAGUAUGCCAGCAUCUCUUGGAAGGAUGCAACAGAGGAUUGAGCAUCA: 0.0631 ratio
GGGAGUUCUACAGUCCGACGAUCUCUGAGGAAAAGGGACACCCCCAGGAGGAAUCUGAGGAGUCAAACGUCAGCAUGGCCAGUUCCGGGGAAAAGAGGGACCACCAUUCAACCCACUACAGGGCUUCAGAGGAAGAACCUGAACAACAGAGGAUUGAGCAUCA: 0.143 ratio
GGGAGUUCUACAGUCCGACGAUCCAGGGCAGCACCACCCCCUCCUCCUUCUUUCCACACCUGCAAACCCUUUUGCCUGGGCUGCACCGUCCGUGUUAAUUACAUCGCAGCUUUGAGGGCUCCUGUGGCAAAUACCCGGAUUAACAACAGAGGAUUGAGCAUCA: 0.288 ratio

Repeated from above (block 4):
F9H: 0.0177
K3T: -0.371
V6H: -0.293
L8K: -0.167
D11N: 0.115
D11I: 0.148
K10A: -0.122
R5M: -0.162
Q7N: -0.0755
K3Y: -0.341
L8N: -0.0158
S4E: 0.0366
D11T: 0.492
